Measurements collected from several papers.
Every numbered part comes from another study and shows a few of its results, in no order.

Set 1
Target: Centromere-binding protein 1, full length, His-tagged (CBF1, Saccharomyces cerevisiae, UniProt P17106, residues 1-351)
Sequence of UniProt P17106 (whole entry, looked up): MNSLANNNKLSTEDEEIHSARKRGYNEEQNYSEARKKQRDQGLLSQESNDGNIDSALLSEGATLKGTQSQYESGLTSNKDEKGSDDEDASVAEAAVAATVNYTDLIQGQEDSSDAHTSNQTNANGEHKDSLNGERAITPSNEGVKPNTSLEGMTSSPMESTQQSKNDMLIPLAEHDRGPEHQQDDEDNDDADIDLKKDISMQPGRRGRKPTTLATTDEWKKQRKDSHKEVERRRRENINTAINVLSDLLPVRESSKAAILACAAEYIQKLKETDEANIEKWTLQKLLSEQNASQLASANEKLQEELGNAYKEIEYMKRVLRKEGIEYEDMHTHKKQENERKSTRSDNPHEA
Technique: competition protein-binding microarray
Molecule type: double-stranded DNA, one strand shown
Sample: in vitro
Tested at: 2 µM
Notes: whole 60-bp probe, lowest competitor level
With: Pho4 competitor, 0.05 µM
Direction: higher = stronger binding
`CTAGAGCCACAAAAGCACGTGCTTTGGGTGCTTTGGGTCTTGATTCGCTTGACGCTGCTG` gave a fluorescence intensity of 1840 a.u.
For `CTGAAGTTGACCGGCCACGGGATTCGTCAAGTATGTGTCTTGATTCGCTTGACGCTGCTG`, the fluorescence intensity was 101 a.u.
`AAGCGCAAGTGATGGAATGTGATGCTTAAAGGCTATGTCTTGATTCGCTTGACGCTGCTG` has a fluorescence intensity of 100 a.u.
The fluorescence intensity of `ACTTTATACCACCACCACATGCCATACTCACCCTCAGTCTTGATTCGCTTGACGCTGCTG` is reported as 80.3 a.u.
`CTAACGAAGGTTTGTCACTCGACTTACAAGCCAAGTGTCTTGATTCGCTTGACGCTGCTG` gave a fluorescence intensity of 63.3 a.u.

Set 2
Target: Histone acetyltransferase KAT6A, both winged helices, GST fusion (KAT6A, Homo sapiens, UniProt Q92794, residues 1-181)
Technique: protein binding microarray
Molecule type: double-stranded DNA, one strand shown
Sample: in vitro
Tested at: not given
Notes: 8-mer, flanks averaged, mean of 2 arrays, mostly near background
Baseline: not given
Direction: higher = stronger binding
Construct (chain): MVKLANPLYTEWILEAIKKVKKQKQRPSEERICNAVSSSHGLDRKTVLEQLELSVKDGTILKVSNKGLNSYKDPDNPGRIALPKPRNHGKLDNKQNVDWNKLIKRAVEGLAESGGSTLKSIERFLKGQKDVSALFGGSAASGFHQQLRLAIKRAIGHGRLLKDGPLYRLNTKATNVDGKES
The E-score of `CTCGTGGC` is reported as -0.0441.
With `AATAGCCT` the E-score was -0.223.
The E-score of `CCCCAGAC` is reported as -0.225.
The E-score of `CTTAAGAA` is reported as -0.0525.
For `ACCAGGTC`, the E-score was -0.0932.
For `ACCTCTGG`, the E-score was -0.278.

Set 3
Target: Sal-like protein 4, full length isoform A (SALL4, Homo sapiens, UniProt Q9UJQ4, residues 1-1053)
Sequence of UniProt Q9UJQ4 (whole entry, looked up): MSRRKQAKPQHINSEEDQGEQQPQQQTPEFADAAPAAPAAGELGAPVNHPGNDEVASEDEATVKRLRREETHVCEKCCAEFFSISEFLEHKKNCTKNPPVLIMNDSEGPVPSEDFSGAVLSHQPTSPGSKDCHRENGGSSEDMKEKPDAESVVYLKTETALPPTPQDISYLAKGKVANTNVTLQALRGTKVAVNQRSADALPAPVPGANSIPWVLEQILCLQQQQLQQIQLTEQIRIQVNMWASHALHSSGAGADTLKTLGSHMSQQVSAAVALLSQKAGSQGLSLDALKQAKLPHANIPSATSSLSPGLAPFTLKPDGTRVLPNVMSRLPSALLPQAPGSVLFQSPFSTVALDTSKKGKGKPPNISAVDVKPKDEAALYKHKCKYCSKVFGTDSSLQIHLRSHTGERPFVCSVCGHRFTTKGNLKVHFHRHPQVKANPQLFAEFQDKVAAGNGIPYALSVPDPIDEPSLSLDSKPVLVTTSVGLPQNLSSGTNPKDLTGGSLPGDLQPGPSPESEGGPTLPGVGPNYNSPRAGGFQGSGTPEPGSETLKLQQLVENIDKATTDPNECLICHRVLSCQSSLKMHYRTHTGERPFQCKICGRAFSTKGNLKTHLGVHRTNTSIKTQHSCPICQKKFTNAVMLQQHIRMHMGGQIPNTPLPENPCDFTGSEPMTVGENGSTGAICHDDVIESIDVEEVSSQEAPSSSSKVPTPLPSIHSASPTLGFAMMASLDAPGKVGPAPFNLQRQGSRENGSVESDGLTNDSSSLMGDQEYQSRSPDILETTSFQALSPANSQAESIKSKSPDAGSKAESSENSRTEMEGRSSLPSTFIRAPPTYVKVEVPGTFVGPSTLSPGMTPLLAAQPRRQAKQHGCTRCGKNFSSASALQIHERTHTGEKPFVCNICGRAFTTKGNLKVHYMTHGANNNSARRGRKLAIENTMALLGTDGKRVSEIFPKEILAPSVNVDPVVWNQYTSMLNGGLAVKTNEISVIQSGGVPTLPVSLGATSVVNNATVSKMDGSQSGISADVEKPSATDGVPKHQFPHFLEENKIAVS
Technique: universal PBM
Molecule type: double-stranded DNA, one strand shown
Sample: in vitro
Tested at: 600 nM
Notes: 8-mer, flanks averaged, mean of replicates
Direction: higher = stronger binding
The E-score of `TTGGCAAA` is reported as 0.223.
With `GAACGCAC` the E-score was -0.154.
The E-score of `GATCGTTA` is reported as 0.0235.
With `AAGTCTGA` the E-score was -0.00451.
For `CGGGATTC`, the E-score was -0.205.
The E-score of `TCTAGACA` is reported as 0.0967.
For `AATCCCGT`, the E-score was -0.129.
The E-score of `ACTATGGG` is reported as -0.101.

Single results of other studies
The fold induction of `PhoQ, residues 284 288 289 292 302 303 AMDMFI` is reported as 0.955 (PhoP, residues 12 14 15 18 19 AQCLL (Escherichia coli, UniProt P23836); Sort-seq, refers to: YFP reporter; E. coli; PhoQ-PhoP variant library, with: 10 µM Mg2+; baseline: high Mg2+ state, higher = stronger signaling).

For quick reference, copied from above (set 1):
The fluorescence intensity of `ACTTTATACCACCACCACATGCCATACTCACCCTCAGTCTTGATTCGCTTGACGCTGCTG` is reported as 80.3 a.u.
`CTAACGAAGGTTTGTCACTCGACTTACAAGCCAAGTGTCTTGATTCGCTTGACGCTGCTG` gave a fluorescence intensity of 63.3 a.u.
